Results pooled from the literature.
A part holds a random share of what one study measured. Substitutions count along the parent as printed.

Sample 1 — method: protein-binding microarray; form: double-stranded DNA, one strand shown; sample: in vitro; tested at: 940 nM top; setting: 60-bp whole probe; added: salmon DNA 0.4 mg/ml; reference: random background probes; reading: higher = stronger binding; all sequences stand within: GCCTAGCAC … GTCTTGATTCGCTTGACGCTGCTG
Target: Interferon regulatory factor 5, full length, phosphomimetic (IRF5, Homo sapiens, UniProt Q13568-2, residues 1-514, S451D/S453D/S456D/S462D)
| Oligonucleotide | fitted relative affinity |
| --- | --- |
| TCTTTTTGCACTCTCTACATGTGCTAG | 1.91 z-score |
| TTAGGACTGGACTTTAGGTTAGTGCTA | -0.401 z-score |
| GGCGGACTGCTACTGCTGACGTGCTAG | -1.04 z-score |
| TCAGGTTTCCAAATTGTACTGTGCTAG | 0.0261 z-score |
| GACGGTCTCCTTCTCCCGACGTGCTAG | 0.869 z-score |
| GACGATTTCAAACTGGAGACGTGCTAG | 0.0169 z-score |
| GACGATCTCAGTCTCCAGACGTGCTAG | 0.0556 z-score |
| TTAGGTTTCCTTATCCTTTCGTGCTAG | 2.13 z-score |
| TTAGGTATCGGAATCGGTTAGTGCTAG | 4.43 z-score |
| TCACATTTTTTTATCAAACTGTGCTAG | 1.43 z-score |
| TTATGACTGGGGTTTCGGTTAGTGCTA | 6.3 z-score |
| CACTCCACCTCTGTGCTCTTGTGCTAG | 0.21 z-score |
| TTAGATCTCGGACTGGATTAGTGCTAG | -0.0205 z-score |
| TCAACTCTCTTGTCTGGAACTGTGCTA | 0.459 z-score |
| AACGGTCTCCTTCTCCTGACGTGCTAG | 0.397 z-score |
| GACAAACTGAGTATCGAGACGTGCTAG | 1.4 z-score |
| GACGGAGTGGGTTTCGGGACGTGCTAG | 2.89 z-score |
| TCAGGTGTCTTTTGTGGAACTGTGCTA | 0.116 z-score |
| TGAGGTTTCGGGTTTCGGTTAGTGCTA | 9.2 z-score |
| GACGGACTGCTCCTGCTGACGTGCTAG | -0.718 z-score |
| TTAGGTCTCAGTTTCGATTAGTGCTAG | 7.75 z-score |
| TCAGGTATTTTTTTGTAACTGTGCTAG | 0.619 z-score |
| TCAAATTTCCACTTTGAACTGTGCTAG | 0.401 z-score |
| TTAGGTTTCCTACTGCGTTAGTGCTAG | 0.542 z-score |
| CTAGGTTTCGACTATCGGTTAGTGCTA | 8.52 z-score |

Sample 2 — method: RNA Bind-n-Seq; form: RNA; sample: in vitro; tested at: not given; setting: RNA with constant flanks, ends assumed; reference: input RNA pool; reading: higher = stronger binding
Target: RING finger protein unkempt homolog, zinc fingers 1-6, GST-SBP tag (UNK, Homo sapiens, UniProt Q9C0B0, residues 30-357)
UniProt Q9C0B0, sequence (30-357, looked up): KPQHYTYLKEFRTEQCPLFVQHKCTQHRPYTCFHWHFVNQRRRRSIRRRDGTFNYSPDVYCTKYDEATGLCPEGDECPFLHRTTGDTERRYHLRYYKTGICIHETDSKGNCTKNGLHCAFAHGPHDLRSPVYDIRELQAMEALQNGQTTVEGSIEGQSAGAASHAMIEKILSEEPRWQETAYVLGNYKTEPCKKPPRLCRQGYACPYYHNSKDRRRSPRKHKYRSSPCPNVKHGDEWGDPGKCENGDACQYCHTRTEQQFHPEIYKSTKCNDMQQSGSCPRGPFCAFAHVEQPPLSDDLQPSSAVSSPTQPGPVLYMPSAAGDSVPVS
| Oligonucleotide | bound/input enrichment [ratio] |
| --- | --- |
| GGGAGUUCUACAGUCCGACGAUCCCUUAAUUAGCAGGUACUGUGUAUUUCAUCAGGAAGUCUUUGUAGUUCUAGAUACUCAGCCCGUAUUUUGGAAUUUGUAUAAUGAGAAUGUUUAGAAGCCAUCUAUAUGGCUUUUUUAAACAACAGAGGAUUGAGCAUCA | 2.07 |
| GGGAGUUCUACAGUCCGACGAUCAGACGAAGCUAUGGAGAUAUUUUGCAUAGAAUGAAGGAUCUCUGCAGAUACAUGAACAACUUUGACCGUGAAGCACAUGCAAAAUAUAAAAACCAAGUGGUGUAUUCCACCAUGCUGGUCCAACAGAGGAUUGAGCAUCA | 0.104 |
| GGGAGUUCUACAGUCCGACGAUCGGAUGGCACAGCUUCUGGAUCUAUCUGUUGAUGAGUCCGAAGCCUUUCUCUCAAAUCCCGCCGUUAACAAGACCAUCUUUGCUAAAGUAGACAGAUUAGCAGGAAUUAUCAACUUCCAGACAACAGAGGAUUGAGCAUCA | 0.267 |
| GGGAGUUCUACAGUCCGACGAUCGCACAUGGUUUGGGACUUGCACGUUCUGCCAUGGAGGAGUCUUCAGUGACAGUUGGCACAACCGACGUUUCUUAUCUGCCCAGUUCAUCGGAAUACAGCCUUGGCCGAUGUAAACACACCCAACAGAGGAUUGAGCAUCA | 0.55 |
| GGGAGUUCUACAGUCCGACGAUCUCUUUAUACAGACUGAGGCUCAGUCUGCCUGCCCGUCUCUGGGGUGUUCCAUCUCAGCAUCCGGUCAGUUGGUUCUGUUGAGUGUCUUCAGGUCCACCUCCAGCUGGUGAUUAUUUCAGACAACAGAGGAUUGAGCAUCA | 0.0884 |
| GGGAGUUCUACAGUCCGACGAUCUUAAUGCCAAUUGUAUAUACACCGACGGUUGGUCUUGCCUGCUCCCAGUAUGGACACAUCUUCCGAAGACCUAAGGGAUUAUUUAUUUCGAUCUCAGACAGAGGUCAUGUUAGAUCAAUUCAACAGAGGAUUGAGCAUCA | 0.368 |
| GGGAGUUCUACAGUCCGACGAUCUCACCCCAGAGCAUUUUAGAUGAUGUUGCCAUGGUACUUGAUGAAGAAGCAGAAGUUUUUACCGUCAAAAUGUGGAGAUUAUUGAUAUAUGAAACAGAAGCCAAGAAAAUUGGUCUUGUGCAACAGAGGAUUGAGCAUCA | 0.355 |
| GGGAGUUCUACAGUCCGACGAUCUCUACGUCUUCAUCUAUGCAGCCAGGCCCUGUGUCAAAUCAGUCACUUUUAUCAGAAUCUGCCGCACCUUCCCAAGUGGACAGUACAUCUGUGGACAAAGCAGUAUCUGAGACAGAAGACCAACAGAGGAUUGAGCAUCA | 0.298 |
| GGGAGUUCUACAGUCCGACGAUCCCUCUGCUGCGAGAAGUUCUGGAGAAGCAGCCAGUGCUAAGCCAGACCGAGGCCCGCGACUCCGCCGAACGCUGCAUGCGAGUGCUGUACUACCGAGAUGCCCGUUCUUACAACCGGUUUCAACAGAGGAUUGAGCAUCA | 0.0645 |
| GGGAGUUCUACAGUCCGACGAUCAUUUUGCUGUGUGGUGUGGCUGCCUUUGGUAGGGAGGUUUCCAUGGAUGUAGCCAGCGUGCCGCUAUUGUGUGUGGGGCAGCAUCCAGCCUGGAGUUGCCAGUGUCUCUAGCAAGCAAUACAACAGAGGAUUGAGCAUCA | 0.243 |
| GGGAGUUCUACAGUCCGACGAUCCUGUGAAAGUAUGGGAAGGUUCCCAUCCCCAUCCUUUAAGGUUCCCAAACCUGGAGUGCACCGGUACUAAACCAAGCAGUGCAACUUGUAAUUAAGAAGCUGCAGUGUUUACAUGUUUCUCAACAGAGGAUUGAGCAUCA | 0.157 |

Sample 3 — method: aptamer microarray, sandwich; form: DNA with 2'F-ANA; sample: in vitro; tested at: 200 nM; added: Cy3 exosite-II aptamer, 400 nM; reading: higher = stronger binding; oligonucleotide: GGTTGGTGTGGTTGG
Target: Prothrombin, mature alpha-thrombin (F2, Homo sapiens, UniProt P00734)
Setting: whole 15-mer aptamer, many near background
| Modification | mean fluorescence intensity [a.u.] |
| --- | --- |
| 2'F-ANA at 1 2 4 7 14 15 | 54.4 |
| 2'F-ANA at 2 5 9 15 | 93.2 |
| 2'F-ANA at 2 3 7 9 10 15 | 409 |
| 2'F-ANA at 2 8 12 13 14 15 | 195 |
| 2'F-ANA at 4 7 12 14 15 | 139 |
| 2'F-ANA at 1 5 6 10 11 13 | 59.7 |
| 2'F-ANA at 5 6 8 13 14 | 42.8 |
| 2'F-ANA at 2 4 5 6 8 12 13 14 15 | 51.7 |
| 2'F-ANA at 3 4 5 6 8 9 13 | 63.5 |
| 2'F-ANA at 1 6 7 12 13 | 267 |
| 2'F-ANA at 1 2 3 5 6 11 12 14 | 49.9 |
| 2'F-ANA at 3 4 5 8 10 12 13 14 | 47 |
| 2'F-ANA at 1 2 5 6 8 11 12 13 | 75.8 |
| 2'F-ANA at 6 7 8 9 12 14 15 | 217 |
| 2'F-ANA at 3 6 8 9 10 13 14 | 359 |
| 2'F-ANA at 1 4 7 9 | 127 |
| 2'F-ANA at 1 4 5 6 7 9 15 | 56.7 |
| 2'F-ANA at 1 2 3 6 10 11 15 | 60.7 |
| 2'F-ANA at 2 5 6 7 8 14 15 | 46.3 |
| 2'F-ANA at 1 2 3 7 8 11 13 14 15 | 79 |
| 2'F-ANA at 2 6 8 12 13 14 | 172 |
| 2'F-ANA at 5 7 9 10 11 12 13 15 | 49.8 |
| 2'F-ANA at 1 2 3 6 7 8 9 11 12 13 14 15 | 108 |
| 2'F-ANA at 1 8 9 12 | 435 |
| 2'F-ANA at 1 5 7 8 9 11 12 13 | 107 |

Sample 4 — method: DHFR PCA, deep sequencing; sample: yeast; added: (+)-ABA 58 µM; reference: wild-type fitted maximum; reading: higher = stronger binding
Target: ABI1, truncated, D143A, DHFR fusion (Arabidopsis thaliana)
Setting: methotrexate growth selection, single substitutions
Starting sequence: PYL1, truncated, DHFR fusion (Arabidopsis thaliana); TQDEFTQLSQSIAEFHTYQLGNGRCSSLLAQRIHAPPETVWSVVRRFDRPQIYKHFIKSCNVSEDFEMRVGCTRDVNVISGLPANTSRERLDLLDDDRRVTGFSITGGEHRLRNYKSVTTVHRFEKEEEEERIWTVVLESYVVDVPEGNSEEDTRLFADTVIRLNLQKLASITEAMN
| Variant | relative binding score [%] |
| --- | --- |
| S63R | 85.9 |
| K116Y | 27.2 |
| T120W | -11.8 |
| D65H | 85.3 |
| N77K | 90.8 |
| D92L | 29 |
| N77G | 82.8 |
| I12V | 73.3 |
| E128H | 96.4 |
| D95E | 55.6 |
| L82K | -8.61 |
| E127H | 94.4 |
| A13Y | 75.8 |
| A35M | 29 |
| N114L | -0.472 |
| Q19D | 95.8 |
| V62A | 55.3 |

Sample 5 — target: CCNB2, cyclin fold, Cln2 fusion (human); method: yeast growth competition, sequencing; sample: yeast; setting: weak parent motif; reference: not given; reading: higher = stronger binding
Starting sequence: ITGB3BP docking peptide (human); MPVKRSLKLDGLL
| Variant | normalised enrichment score |
| --- | --- |
| L7A | 0.944 |
| V3A | 0.548 |
| L13A | 0.111 |
| P2A | 0.569 |
| R5A L7A | 0.405 |
| R5K | 0.0482 |
| S6A | 0.37 |
| L9A | 0.264 |
| R5K L9F | 0.206 |
